Published values pooled from the literature.
A part holds a random share of what one study measured. Substitutions count along the parent as printed.

Study 1
Target: CCNB2, cyclin fold, Cln2 fusion (human)
Technique: yeast growth competition, sequencing
Medium: yeast
Notes: weak parent motif
Baseline: not given
Reading: higher = stronger binding
Parent: PKN2 docking peptide (human); VSAVQKLDFSDTM; partner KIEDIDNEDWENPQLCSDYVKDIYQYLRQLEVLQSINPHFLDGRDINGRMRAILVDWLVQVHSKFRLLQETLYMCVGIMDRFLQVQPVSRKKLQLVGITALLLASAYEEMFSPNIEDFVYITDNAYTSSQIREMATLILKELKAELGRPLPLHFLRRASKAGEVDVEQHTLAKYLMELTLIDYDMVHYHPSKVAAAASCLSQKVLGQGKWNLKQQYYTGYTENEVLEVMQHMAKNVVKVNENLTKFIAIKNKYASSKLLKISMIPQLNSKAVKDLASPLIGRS
Substitution	normalised enrichment score
V1I	0.0313
D8H	-0.224
V1H	0.0552
S10T	-0.0294
S10E	0.708
D8S	-0.00801
S10K	-0.425
M13G	0.00619
A3R	-0.253
V1E	0.078
T12R	-0.283
S2P	-0.125
F9H	-0.395
A3Q	-0.341
A3T	-0.0352
V1W	-0.105
V4W	-0.312
L7K	-0.497
D11T	-0.309
K6N	0.0254
K6L	-0.535
K6E	-0.381
D8M	0.0665
K6S	0.137
V1S	0.36

Study 2
Target: RNA binding protein fox-1 homolog 2, RRM domain, GST-SBP tag (RBFOX2, Homo sapiens, UniProt O43251-10, residues 100-194)
Technique: RNA Bind-n-Seq
Form: RNA
Medium: in vitro
Tested at: 365 nM
Notes: natural RNA segment, single round, ends assumed
Baseline: no-protein control
Reading: higher = stronger binding
Construct (chain): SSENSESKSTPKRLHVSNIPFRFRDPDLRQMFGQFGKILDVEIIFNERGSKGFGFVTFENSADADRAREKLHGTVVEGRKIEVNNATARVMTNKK
Oligonucleotide	RBNS enrichment (R)
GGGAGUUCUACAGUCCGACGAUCUUCCAGGGAUUACAUGGAGGAUCACCGAUGUCUUUUCUCAUGCCCACCAGAUAUCAAGUACUCAUGACUUGACUCCCAAAUGCGCCGUUACAGGGCUAAGUUAAAGCCAGUGGAAUUCUCGGGUGCCAA	0.418
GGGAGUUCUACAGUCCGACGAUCCCUCCCGUCCUCUAAGACUAGCUCAUAAGCAUCCUGAGUCAAAGACCUCUGCCUGCCUUGUGAGUACGACUUGUGGCACUUAGCAUGGUGUUCAACACACGAAAUGCUCAUGGAAUUCUCGGGUGCCAA	1.33
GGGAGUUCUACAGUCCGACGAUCAUCCUUAUAGUCAAUUCUGUGCCUAGGAUUUUGCCAGGGAACAGUUCACUGACUAGGAAAAGCACUACAUUUUAAAUUCAGCAUUAGUGCAUUGGGAAGGAUCUUUACUGUGGAAUUCUCGGGUGCCAA	0.329
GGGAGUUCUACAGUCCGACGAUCUUAUUCAGUCUGGUUCUUGGCUCCCCACUACUGUUUCUCUCAGCCUCUCAGAGCCUGAAACUUACCUCUUAGCUUUGGCUACAGGCAUGGCCUAGUACCUGAUGGAGCCUUGGAAUUCUCGGGUGCCAA	0.263
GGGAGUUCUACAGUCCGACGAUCUAUCACCAUUAAAUUAAGACCUUAAUGGUAAACUGAGGUUACUGAUGCAUCAUCACAUUUAAGUAAAAAUAAUUUCAUGUUUUCCCCAAAGAAAAAUUAAGCCUCCCAAUUGGAAUUCUCGGGUGCCAA	0.495
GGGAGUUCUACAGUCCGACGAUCACACUAUCUUGACACUUGAUAGAAGAGCCUAUUAGGAGUCACAGUGGUUUCGUAGAGUAAAACCCAAGUGAGGAGGGAUGUGUGGGGUUUCCAUUAGGAAAUAAUUUCGUUGGAAUUCUCGGGUGCCAA	0.631
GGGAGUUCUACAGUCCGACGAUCUAAGAAGUAAAAUACAUCAGCAGAUUUUCAUACUAGUAUGUUGUAAUGCUGUCUUUUCUAUGGUGUAGAAUCUUUCUUUCUGAUAAGGAACGUCUCAGGCUUAGAAAUAUUGGAAUUCUCGGGUGCCAA	0.504
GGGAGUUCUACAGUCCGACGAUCAGCUGAACUGGGAACCCUACAGCCUAGUGAUUCUUCUACUUGCUCGCUAUAGCUUUCUGUUGGCAAAUUUUCUCAAAAGCACUCUCUUUAAUCAGAUUAACUUCUUAAACUGGAAUUCUCGGGUGCCAA	0.962
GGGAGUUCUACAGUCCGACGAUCCAGCCCCAAACCUUUUGUUCUCUCCGUGAAACUUACCUUUCCCUUUUUCUUUCUCUUUUUUUUUUUUGUAUAUUAUUGUUUACAAUAAAUAUACAUUGCAUUAAAAAGAAUGGAAUUCUCGGGUGCCAA	0.386
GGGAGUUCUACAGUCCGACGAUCGAUUCUCUAAAGGAAUUUGGAGAUAUGACAUCACUCCUGAGCAGAGCAUAUUAGAAGAAAGCAAACUGCCAUACAAUAAUUUUCAGUUUCCAAGGCAACCAAGUGGAGAAUGGAAUUCUCGGGUGCCAA	1.27
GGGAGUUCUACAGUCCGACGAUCGGGCUCAGAGAGUCCCAGCCCUAAGGGUGUGAACCUCACCUCCUGGGGCUUCCGAGCUACAGGGCUGGGACCAGGUCAUGCAGCUGAAAGUCUACGUUAAAAAAAAAAAGUGGAAUUCUCGGGUGCCAA	0.42
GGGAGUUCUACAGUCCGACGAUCGGUGUUGUCCAAGCUGCGCAUCGGUGCACAGUGUGGCCUGGCACACACGCAGGCGGGCGACGGAACUUGAAGGGUUAUUGACAUGCAAAUGCUGGUGUUUGAUUUCCUGUUGGAAUUCUCGGGUGCCAA	1.51

Study 3
Target: Interferon regulatory factor 7, full length, phosphomimetic (IRF7, Homo sapiens, UniProt Q92985, residues 1-503, S471D/S472D/S475D/S476D/S477D/S483D/S484D/S487D)
Chain of UniProt Q92985 (whole entry, unmodified, looked up): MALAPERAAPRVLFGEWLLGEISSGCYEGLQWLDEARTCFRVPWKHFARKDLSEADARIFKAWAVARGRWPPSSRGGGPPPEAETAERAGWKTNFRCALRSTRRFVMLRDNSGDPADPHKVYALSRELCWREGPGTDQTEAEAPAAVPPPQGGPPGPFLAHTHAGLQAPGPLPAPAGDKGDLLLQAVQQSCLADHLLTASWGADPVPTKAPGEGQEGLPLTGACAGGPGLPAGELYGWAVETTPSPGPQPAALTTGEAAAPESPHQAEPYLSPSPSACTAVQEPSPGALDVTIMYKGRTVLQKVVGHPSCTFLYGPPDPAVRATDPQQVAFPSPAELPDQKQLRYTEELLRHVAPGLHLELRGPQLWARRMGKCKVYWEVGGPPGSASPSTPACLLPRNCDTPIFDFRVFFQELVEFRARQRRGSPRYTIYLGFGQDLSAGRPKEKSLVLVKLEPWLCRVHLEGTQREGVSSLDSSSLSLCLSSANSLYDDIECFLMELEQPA
Technique: protein-binding microarray
Form: double-stranded DNA, one strand shown
Medium: in vitro
Tested at: 2200 nM top
Notes: 60-bp whole probe
With: salmon DNA 0.4 mg/ml
Baseline: random background probes
Reading: higher = stronger binding
Constant ends, left off below: GCCTAGCAC … GTCTTGATTCGCTTGACGCTGCTG
Oligonucleotide	fitted relative affinity [z-score]
TTAAGTCTCCTTCTCCTTTAGTGCTAG	1.15
GATGGTTTCCTACTGCTGACGTGCTAG	1.68
TTAGAACTGGGGTTTGGATTAGTGCTA	-0.0692
TTAGGTTCCTGTTTCGGTTAGTGCTAG	6.37
TTAGGTATCGGTATCGGTTCGTGCTAG	1.81
TCACATATGCTTTTTAGACTGTGCTAG	1.25
GACGAACTGGGGACTGGAGAAGTGCTA	-0.0566
GACGGCATCGGTTTCGGGACGTGCTAG	2.97
TCATGTTTGGGCATTTTTACTGTGCTA	0.433
TTAGGTTTCGACTATCGTTTAGTGCTA	3.33
TTCGATATCAGTTTCGATTAGTGCTAG	5.91
GACGCTTTCGGTATCGGGACGTGCTAG	8.43
TTAGATAGCGGGTTTCGATTAGTGCTA	2.1
TTTGCTTTCTTTATGCACTCGTGCTAG	2.87
CACTCTCTACATGTGTTTACGTGCTAG	2.02
GACGATTTCGGGTCTGGAGACGTGCTA	3.4
GACGATTTCGGGTATCTAGACGTGCTA	2.76
TTAGATCTAAGTCTCGATTAGTGCTAG	0.0932
GACGGTCTTGGTCTCGGGACGTGCTAG	-0.124

Study 4
Target: Sal-like protein 4, full length isoform A (SALL4, Homo sapiens, UniProt Q9UJQ4, residues 1-1053)
Chain of UniProt Q9UJQ4 (whole entry, looked up): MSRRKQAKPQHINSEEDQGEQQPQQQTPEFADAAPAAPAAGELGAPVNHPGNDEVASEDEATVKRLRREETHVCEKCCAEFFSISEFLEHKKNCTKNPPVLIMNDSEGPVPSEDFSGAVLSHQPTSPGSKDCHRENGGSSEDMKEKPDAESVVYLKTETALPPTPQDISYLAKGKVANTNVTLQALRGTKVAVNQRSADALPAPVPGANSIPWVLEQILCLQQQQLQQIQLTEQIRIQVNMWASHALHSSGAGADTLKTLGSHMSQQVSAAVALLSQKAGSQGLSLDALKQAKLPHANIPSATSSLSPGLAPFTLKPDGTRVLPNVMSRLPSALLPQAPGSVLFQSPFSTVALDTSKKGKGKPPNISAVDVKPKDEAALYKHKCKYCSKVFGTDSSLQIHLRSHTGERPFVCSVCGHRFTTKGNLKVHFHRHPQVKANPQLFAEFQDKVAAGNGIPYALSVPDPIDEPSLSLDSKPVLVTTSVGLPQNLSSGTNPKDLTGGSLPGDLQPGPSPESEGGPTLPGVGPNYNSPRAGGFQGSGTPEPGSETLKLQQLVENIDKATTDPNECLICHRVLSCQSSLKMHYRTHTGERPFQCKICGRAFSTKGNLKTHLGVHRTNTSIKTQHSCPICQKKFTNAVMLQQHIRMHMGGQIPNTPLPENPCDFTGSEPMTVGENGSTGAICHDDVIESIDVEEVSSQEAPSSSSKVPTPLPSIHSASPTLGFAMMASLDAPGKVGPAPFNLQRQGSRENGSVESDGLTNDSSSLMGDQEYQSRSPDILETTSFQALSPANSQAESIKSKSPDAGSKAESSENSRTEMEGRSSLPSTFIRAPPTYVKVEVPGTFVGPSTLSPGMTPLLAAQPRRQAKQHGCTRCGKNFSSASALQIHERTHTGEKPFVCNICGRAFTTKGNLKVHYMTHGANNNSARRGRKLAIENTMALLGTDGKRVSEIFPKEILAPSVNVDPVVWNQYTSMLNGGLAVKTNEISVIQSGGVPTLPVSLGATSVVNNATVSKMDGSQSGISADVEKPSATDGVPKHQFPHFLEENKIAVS
Technique: universal PBM
Form: double-stranded DNA, one strand shown
Medium: in vitro
Tested at: 600 nM
Notes: 8-mer, flanks averaged, mean of replicates
Reading: higher = stronger binding
Oligonucleotide	E-score
GCTCTACC	-0.186
CGAGGTGA	0.00628
CCTGAGCC	-0.28
GAAGGGAC	-0.145
GTCGCCGA	-0.238
CCCCACAG	-0.286
TTGTACAA	0.289
AAACATAT	0.374
AAACCGCG	-0.159
CCGCACTA	-0.236
AGATCCGG	-0.131
GGTGGGGA	-0.187
GTCAACAA	0.0669
ACGGTCCT	-0.279
CTCAAGGC	-0.177
GGTGTTAC	-0.0413
GGTGAAGA	-0.15
ACTACACT	0.129
ATACTTTA	0.356
CTAACCCA	-0.0955

Study 5
Target: Hepatocyte nuclear factor 3-beta, forkhead domain (FOXA2, Homo sapiens, UniProt Q9Y261, residues 142-269)
Technique: protein-binding microarray
Form: double-stranded DNA, one strand shown
Medium: in vitro
Tested at: not given
Notes: k-mer, scored over probes, only values ≥0.25
Reading: higher = stronger binding
Target sequence (chain): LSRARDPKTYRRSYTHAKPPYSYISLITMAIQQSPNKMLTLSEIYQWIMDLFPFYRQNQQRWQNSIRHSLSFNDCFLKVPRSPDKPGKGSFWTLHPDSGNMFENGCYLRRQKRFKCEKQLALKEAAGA
Oligonucleotide	E-score
AATATTTG	0.339
AATTAATG	0.262
ATAAGTAA	0.332
TATAGTGA	0.295
ATAAATAC	0.375
CATAAATA	0.338
TTATACAA	0.356
CCATAATA	0.26
TCAACAAA	0.314
TGTACACA	0.459
ACATACAA	0.349
ACCTTATA	0.285
AGTGTTTG	0.331
AAATACTG	0.286
AACATATA	0.373
GGTCAATA	0.319
